Measured values of several laboratories.
± marks the error that the study gave.
rep nsp14 with nsp10: Replicase polyprotein 1ab, nsp14 with nsp10 (rep, Severe acute respiratory syndrome coronavirus 2, UniProt P0DTD1)
rep main protease: Replicase polyprotein 1ab, main protease (rep, Severe acute respiratory syndrome coronavirus 2, UniProt P0DTD1)
rep nsp14: Replicase polyprotein 1ab, nsp14 (rep, Severe acute respiratory syndrome coronavirus 2, UniProt P0DTD1)
rep nsp3 Mac1 domain: Replicase polyprotein 1ab, nsp3 Mac1 domain (rep, Severe acute respiratory syndrome coronavirus 2, UniProt P0DTD1)

SMILES | target or system | assay | test system | setting | scale | endpoint | result
O=C(O)C(O)=CC(=O)c1ccc(O)c(O)c1 | rep nsp14 with nsp10 | exonuclease activity, inhibitor | – | – | – | IC50 | 7100 ± 500 nM
CN(C)CCCCNC(=O)C[C@H](Cc1ccc(F)cc1)NC(=O)[C@@H](Cc1ccc(Cl)cc1Cl)NC(=O)[C@H](O)Cc1ccccc1C#N | rep main protease | enzyme activity, inhibitor | – | – | – | IC50 | 500 nM
COc1ccc(CNC(=O)c2cc(S(=O)(=O)N3CCC(C)CC3)c(C)n2C)cc1 | rep nsp14 | enzyme activity, inhibitor | – | – | – | IC50 | 540 nM
CN(C)CCCCNC(=O)C[C@H](Cc1ccc(F)cc1)NC(=O)[C@@H](Cc1ccc(Cl)cc1Cl)NC(=O)[C@@H](Cc1ccccc1C#N)NS(C)(=O)=O | rep main protease | enzyme activity, inhibitor | – | – | – | IC50 | 500 nM
O=C(NCc1ccccc1)C1C(=O)N(O)C(=O)c2cc([N+](=O)[O-])ccc21 (stereo not drawn) | rep nsp14 with nsp10 | exonuclease activity, inhibitor | – | – | – | IC50 | 7800 nM
COc1cccc(C(=O)N(CCC(=O)N2CCNCC2)Cc2cccc(Cl)c2)c1 | rep nsp3 Mac1 domain | enzyme activity, inhibitor, fluorescence polarization | – | – | – | IC50 | > 300000 nM
CC[C@H](C)[C@H](NC(=O)[C@H](C)NC(=O)[C@H](CCC(=O)O)NC(=O)[C@H](CCC(=O)O)NC(=O)[C@H](CC(C)C)NC(=O)[C@H](CCCCN)NC(=O)[C@H](CCCCN)NC(=O)[C@H](CCSC)NC(=O)[C@H](CCC(=O)O)NC(=O)[C@H](Cc1ccc(O)cc1)NC(=O)[C@H](CCC(=O)O)NC(=O)[C@H](CC(C)C)NC(=O)[C@H](CC(=O)O)NC(=O)[C@H](CC(C)C)NC(=O)[C@H](Cc1ccccc1)NC(=O)[C@H](Cc1ccc(O)cc1)NC(=O)[C@@H](NC(=O)[C@H](CC(N)=O)NC(=O)[C@@H](NC(=O)[C@H](CCC(N)=O)NC(=O)[C@H](CC(=O)O)NC(=O)[C@H](CC(C)C)NC(=O)[C@@H](N)CO)[C@@H](C)CC)C(C)C)C(=O)N[C@@H](CCCCN)C(=O)N[C@@H](CCCCN)C(=O)N[C@@H](CC(C)C)C(=O)N[C@@H](CCC(=O)O)C(=O)N[C@@H](CCC(=O)O)C(=O)N[C@H](C(=O)N[C@@H](Cc1ccc(O)cc1)C(=O)N[C@H](C(=O)N[C@@H](CC(=O)O)C(=O)N[C@@H](CC(C)C)C(=O)N[C@@H](CCCCN)C(=O)N[C@@H](CCC(=O)O)C(=O)N[C@@H](CC(C)C)C(=O)O)[C@@H](C)CC)[C@@H](C)O | SARS-CoV-2 Beta pseudovirus | pseudovirus infection, inhibitor, luciferase | Caco-2 | 24 h, dual mutations | – | IC50 | 599 nM
C#CCCCCNC(=O)C[C@H](Cc1ccc(F)cc1)NC(=O)[C@@H](Cc1ccc(Cl)cc1Cl)NC(=O)[C@H](N)Cc1ccccc1C#N | rep main protease | enzyme activity, inhibitor | – | – | – | IC50 | 100 nM
O=C(NC1CCN(c2ncnc3[nH]cnc23)CC1)c1cccc(S(=O)(=O)Nc2ccc(Cl)cc2)c1 | SARS-CoV-2 | – | Wuhan-Hu-1 | 0.823 µM | baseline: untreated infected cells | relative infection | 57.4%
O=C(Nc1ccc(F)cc1)C1C(=O)N(O)C(=O)c2cc([N+](=O)[O-])ccc21 (stereo not drawn) | rep nsp14 with nsp10 | exonuclease activity, inhibitor | – | – | – | IC50 | 6900 nM
O=C(Oc1cncc(Cl)c1)c1cc2ccccc2s1 | rep main protease | enzyme activity, inhibitor | – | – | – | IC50 | 26.1 nM
O=C(O)c1cc(OC2OC(CO)C(O)C(O)C2O)c2ccccc2c1O (stereo not drawn) | rep nsp3 Mac1 domain | enzyme activity, inhibitor, AlphaScreen | – | – | – | IC50 | 36700 ± 3700 nM
Cc1c(S(=O)(=O)N2CCC(C)CC2)cc(C(=O)NC2CCCC2)n1C | rep nsp14 | enzyme activity, inhibitor | – | – | – | IC50 | 1400 nM
O=C(Oc1cccc2cccnc12)c1cccs1 | rep nsp3 Mac1 domain | enzyme activity, inhibitor, fluorescence polarization | – | – | – | IC50 | > 300000 nM
NS(=O)(=O)c1ccc(-c2cn(-c3ccc(C(=O)C=C(O)C(=O)O)cc3)nn2)cc1 | rep nsp14 with nsp10 | exonuclease activity, inhibitor | – | – | – | IC50 | 14000 ± 4000 nM
CC[C@H](C)[C@H](NC(=O)[C@H](C)NC(=O)[C@H](CCC(=O)O)NC(=O)[C@H](CCC(=O)O)NC(=O)[C@H](CC(C)C)NC(=O)[C@H](CCCCN)NC(=O)[C@H](CCCCN)NC(=O)[C@H](CCSC)NC(=O)[C@H](CCC(=O)O)NC(=O)[C@H](Cc1ccc(O)cc1)NC(=O)[C@H](CCC(=O)O)NC(=O)[C@H](CC(C)C)NC(=O)[C@H](CC(=O)O)NC(=O)[C@H](CC(C)C)NC(=O)[C@H](Cc1ccccc1)NC(=O)[C@@H](NC(=O)[C@@H](NC(=O)[C@H](CC(N)=O)NC(=O)[C@@H](NC(=O)[C@H](CCC(N)=O)NC(=O)[C@H](CC(=O)O)NC(=O)[C@H](CC(C)C)NC(=O)[C@@H](N)CO)[C@@H](C)CC)C(C)C)[C@@H](C)O)C(=O)N[C@@H](CCCCN)C(=O)N[C@@H](CCCCN)C(=O)N[C@@H](CC(C)C)C(=O)N[C@@H](CCC(=O)O)C(=O)N[C@@H](CCC(=O)O)C(=O)N[C@@H](CO)C(=O)N[C@@H](Cc1ccc(O)cc1)C(=O)N[C@H](C(=O)N[C@@H](CC(=O)O)C(=O)N[C@@H](CC(C)C)C(=O)N[C@@H](CCCCN)C(=O)N[C@@H](CCC(=O)O)C(=O)N[C@@H](CC(C)C)C(=O)O)[C@@H](C)CC | SARS-CoV-2 Alpha pseudovirus | pseudovirus infection, inhibitor, luciferase | Caco-2 | 24 h | – | IC50 | 1120 nM
CN(C)CCCCNC(=O)C[C@H](Cc1ccc(F)cc1)NC(=O)[C@@H](Cc1ccc(Cl)cc1Cl)NC(=O)[C@H](Cc1ccccc1C#N)NC(=O)OC(C)(C)C | rep main protease | enzyme activity, inhibitor | – | – | – | IC50 | > 10000 nM
O=C(O)C(O)=CC(=O)c1ccc2cc(O)c(O)cc2c1 | rep nsp14 with nsp10 | exonuclease activity, inhibitor | – | – | – | IC50 | 1860 ± 160 nM
Oc1nc(/C=C/c2ccc(Cl)cc2Cl)cc(C(F)(F)F)n1 | Replicase polyprotein 1ab, nsp16 with nsp10 (rep, Severe acute respiratory syndrome coronavirus 2, UniProt P0DTD1) | nsp16-nsp10 methyltransferase activity | – | no preincubation, added: DTT 5 mM | – | IC50 | ~100000 nM
N#Cc1ccccc1C[C@@H](N)C(=O)N[C@H](Cc1ccc(Cl)cc1Cl)C(=O)N[C@H](CC(=O)NCCCCC(=O)O)Cc1ccc(F)cc1 | rep main protease | enzyme activity, inhibitor | – | – | – | IC50 | 200 nM
O=C(O)C(O)=CC(=O)C1(Cc2ccc(Cl)cc2)CCN(C(=O)C=Cc2ccccc2)CC1 | rep nsp14 with nsp10 | exonuclease activity, inhibitor | – | – | – | IC50 | 20000 ± 1800 nM
O=C(NC1CCN(c2ncnc3[nH]cnc23)CC1)c1cccc(NS(=O)(=O)c2ccc(Cl)cc2)c1 | SARS-CoV-2 | – | Wuhan-Hu-1 | 66.67 µM | baseline: untreated infected cells | relative infection | 19.3%
O=C(Nc1cccc(Cl)c1)Nc1nonc1NC(=O)Nc1cccc(Cl)c1 | Replicase polyprotein 1ab, nsp4-nsp5-nsp6 precursor (rep, Severe acute respiratory syndrome coronavirus 2, UniProt P0DTD1) | reporter gene, inhibitor, Rev-Nluc cell | – | – | – | IC50 | > 50000 nM
N#Cc1ccccc1C[C@@H](N)C(=O)N[C@H](Cc1ccc(Cl)cc1Cl)C(=O)N[C@H](CC(=O)NCCCC(N)=O)Cc1ccc(F)cc1 | rep main protease | enzyme activity, inhibitor | – | – | – | IC50 | 90 nM

Repeated from above:
SMILES | target or system | assay | test system | setting | scale | endpoint | result
CN(C)CCCCNC(=O)C[C@H](Cc1ccc(F)cc1)NC(=O)[C@@H](Cc1ccc(Cl)cc1Cl)NC(=O)[C@H](O)Cc1ccccc1C#N | rep main protease | enzyme activity, inhibitor | – | – | – | IC50 | 500 nM
COc1ccc(CNC(=O)c2cc(S(=O)(=O)N3CCC(C)CC3)c(C)n2C)cc1 | rep nsp14 | enzyme activity, inhibitor | – | – | – | IC50 | 540 nM
CN(C)CCCCNC(=O)C[C@H](Cc1ccc(F)cc1)NC(=O)[C@@H](Cc1ccc(Cl)cc1Cl)NC(=O)[C@@H](Cc1ccccc1C#N)NS(C)(=O)=O | rep main protease | enzyme activity, inhibitor | – | – | – | IC50 | 500 nM
